# Published values collected from several papers.
# Protocols differ between the studies behind these lines. pIC50: −log10 of the molar value.
# Organism: Severe acute respiratory syndrome coronavirus 2
SMILES,read-out,mode,technique,cells,time,setting,pIC50
CCCCCCC1O[C@@H]2C[C@H]3[C@@H]4CCC5=CC(=O)C=C[C@]5(C)[C@H]4[C@@H](O)C[C@]3(C)[C@]2(C(=O)CO)O1 (stereo partly shown),viral replication,,,VeroE6/TMPRSS2,,,5.26
Cc1ccc(N2CCN(C)CC2)cc1C(=O)NC1(c2ccc3c4c(cccc24)CC3)CC1,viral replication,,,Vero C1008,,,6.34
CCCCCCCCCC1O[C@@H]2C[C@H]3[C@@H]4CCC5=CC(=O)C=C[C@]5(C)[C@H]4[C@@H](O)C[C@]3(C)[C@]2(C(=O)CO)O1 (stereo partly shown),viral replication,inhibitor,,Calu-3,,,5.05
O=P(O)(OCCCc1ccccc1)Oc1c2c(c(OP(=O)(O)OCCCc3ccccc3)c3c1C1CC3c3cc4c(cc31)C1CC4c3ccccc31)C1CC2c2cc3c(cc21)C1CC3c2ccccc21,viral replication,,,Caco-2,,,5.15
CCCCCCCCCCCCCCCC1O[C@@H]2C[C@H]3[C@@H]4CCC5=CC(=O)C=C[C@]5(C)[C@H]4[C@@H](O)C[C@]3(C)[C@]2(C(=O)CO)O1 (stereo partly shown),viral replication,inhibitor,,VeroE6/TMPRSS2,24 h,,4.68
C=CCCCCOP(=O)(O)Oc1c2c(c(OP(=O)(O)OCCCCC=C)c3c1C1CC3c3cc4c(cc31)C1CC4c3ccccc31)C1CC2c2cc3c(cc21)C1CC3c2ccccc21,viral replication,,,Caco-2,,,5.59
CCC(CC)COC(=O)[C@H](C)N[P@](=O)(OC[C@H]1O[C@@](C#N)(c2ccc3c(N)ncnn23)[C@H](O)[C@@H]1O)Oc1ccccc1,viral replication,,,HeLa-ACE2,48 h,,7.52
COc1ccc(C(=O)OC2C(OC3C(O)COC(OC4CC5C6CC=C7CC(O)CCC7(C)C6CCC5(C)C4(O)C(C)C(=O)CCC(C)C)C3OC(C)=O)OCC(O)C2O)cc1 (stereo not shown),cytopathic effect,,,Vero C1008,72 h,,~8.70
O=P(O)(OCc1ccc(-c2ccccc2)cc1)Oc1c2c(c(OP(=O)(O)OCc3ccc(-c4ccccc4)cc3)c3c1C1CC3c3cc4c(cc31)C1CC4c3ccccc31)C1CC2c2cc3c(cc21)C1CC3c2ccccc21,viral replication,,,Caco-2,,,6.70
O=C1c2c(O)ccc(O)c2C(=O)c2c(NCCNCCO)ccc(NCCNCCO)c21,viral replication,inhibitor,,Calu-3,40 h,,6.10
CC(=O)c1cccc(-c2nc(Nc3ccccc3)nc(N3CCOCC3)n2)c1,viral replication,,,Vero,,,5.66
COc1cccc2c1C(=O)c1c(O)c3c(c(O)c1C2=O)C[C@@](O)(C(=O)CO)C[C@@H]3O[C@H]1C[C@H](N)[C@@H](O)[C@H](C)O1,viral replication,inhibitor,,Calu-3,40 h,,5.97
Oc1ccc(/C=N/C23CC4CC(CC(C4)C2)C3)cc1,viral replication,,qPCR,Calu-3,,,8.46
CCCCCCOP(=O)(O)Oc1c2c(c(OP(=O)(O)OCCCCCC)c3c1C1CC3c3cc4c(cc31)C1CC4c3ccccc31)C1CC2c2cc3c(cc21)C1CC3c2ccccc21,viral replication,,,Caco-2,,,6.00
Oc1ccc(Br)cc1-c1nc2cc(C(F)(F)F)ccc2s1,viral replication,inhibitor,luciferase,,24 h,replicon,5.62
Cc1ccc(N2CC3CC(C2)N3)cc1C(=O)NC1(c2ccc3c4c(cccc24)C(=O)N3C)CC1,viral replication,,,Vero C1008,,,7.31
CCCCCCCOP(=O)(O)Oc1c2c(c(OP(=O)(O)OCCCCCCC)c3c1C1CC3c3cc4c(cc31)C1CC4c3ccccc31)C1CC2c2cc3c(cc21)C1CC3c2ccccc21,viral replication,,,Caco-2,,,6.40
C[C@]12C=CC(=O)C=C1CC[C@@H]1[C@@H]2[C@@H](O)C[C@@]2(C)[C@H]1C[C@H]1OC(c3cccc(Cl)c3)O[C@]12C(=O)CO (stereo partly shown),viral replication,inhibitor,,VeroE6/TMPRSS2,24 h,,5.07
CC(C)CCOP(=O)(O)Oc1c2c(c(OP(=O)(O)OCCC(C)C)c3c1C1CC3c3cc4c(cc31)C1CC4c3ccccc31)C1CC2c2cc3c(cc21)C1CC3c2ccccc21,viral replication,,,Caco-2,,,5.09
C[C@]12C=CC(=O)C=C1CC[C@@H]1[C@@H]2[C@@H](O)C[C@@]2(C)[C@H]1C[C@H]1OC(c3ccc(Cl)cc3)O[C@]12C(=O)CO (stereo partly shown),viral replication,inhibitor,,VeroE6/TMPRSS2,24 h,,5.08
Cc1ccc(N2CC(N3CCC(C)(O)CC3)C2)cc1C(=O)NC1(c2ccc3c4c(cccc24)CC3)CC1,viral replication,,,Vero C1008,,,6.68
CC(=O)NCCCCCCCCCC1O[C@@H]2C[C@H]3[C@@H]4CCC5=CC(=O)C=C[C@]5(C)[C@H]4[C@@H](O)C[C@]3(C)[C@]2(C(=O)CO)O1 (stereo partly shown),viral replication,inhibitor,,VeroE6/TMPRSS2,24 h,,5.23
O=P(O)(OCc1cccc2ccccc12)Oc1c2c(c(OP(=O)(O)OCc3cccc4ccccc34)c3c1C1CC3c3cc4c(cc31)C1CC4c3ccccc31)C1CC2c2cc3c(cc21)C1CC3c2ccccc21,viral replication,,,Caco-2,,,6.52
C[C@]12C=CC(=O)C=C1CC[C@@H]1[C@@H]2[C@@H](O)C[C@@]2(C)[C@H]1C[C@@H](O)[C@]2(O)C(=O)CO,viral replication,inhibitor,,VeroE6/TMPRSS2,24 h,,< 4.52
Cc1ccc(COP(=O)(O)Oc2c3c(c(OP(=O)(O)OCc4ccc(C)cc4)c4c2C2CC4c4cc5c(cc42)C2CC5c4ccccc42)C2CC3c3cc4c(cc32)C2CC4c3ccccc32)cc1,viral replication,,,Caco-2,,,5.82

# Excerpt of the above:
SMILES,read-out,mode,technique,cells,time,setting,pIC50
O=C1c2c(O)ccc(O)c2C(=O)c2c(NCCNCCO)ccc(NCCNCCO)c21,viral replication,inhibitor,,Calu-3,40 h,,6.10
CC(=O)c1cccc(-c2nc(Nc3ccccc3)nc(N3CCOCC3)n2)c1,viral replication,,,Vero,,,5.66
O=P(O)(OCCCc1ccccc1)Oc1c2c(c(OP(=O)(O)OCCCc3ccccc3)c3c1C1CC3c3cc4c(cc31)C1CC4c3ccccc31)C1CC2c2cc3c(cc21)C1CC3c2ccccc21,viral replication,,,Caco-2,,,5.15
